# Measurements collected from several papers.
# ± gives the spread as reported.
# TDP1: Tyrosyl-DNA phosphodiesterase 1 (TDP1, Homo sapiens, UniProt Q9NUW8)
# Chain of UniProt Q9NUW8 (whole entry, looked up): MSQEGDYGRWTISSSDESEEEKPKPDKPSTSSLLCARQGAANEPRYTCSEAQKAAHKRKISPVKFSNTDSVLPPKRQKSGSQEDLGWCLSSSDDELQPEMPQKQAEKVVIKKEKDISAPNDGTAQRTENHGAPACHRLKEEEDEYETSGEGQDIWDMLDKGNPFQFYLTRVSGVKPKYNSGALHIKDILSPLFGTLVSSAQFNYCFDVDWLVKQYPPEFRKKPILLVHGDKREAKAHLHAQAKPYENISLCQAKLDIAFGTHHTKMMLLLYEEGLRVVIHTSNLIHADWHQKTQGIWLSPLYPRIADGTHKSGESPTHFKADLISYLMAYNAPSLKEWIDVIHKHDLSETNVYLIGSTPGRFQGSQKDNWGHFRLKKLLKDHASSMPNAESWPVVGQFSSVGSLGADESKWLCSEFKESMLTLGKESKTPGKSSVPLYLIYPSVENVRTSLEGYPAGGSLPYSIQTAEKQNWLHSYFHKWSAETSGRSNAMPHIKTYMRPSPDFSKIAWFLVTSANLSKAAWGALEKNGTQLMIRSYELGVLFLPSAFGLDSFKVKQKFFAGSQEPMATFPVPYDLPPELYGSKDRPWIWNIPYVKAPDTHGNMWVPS
# Chain of UniProt P0A7A9 (whole entry, looked up): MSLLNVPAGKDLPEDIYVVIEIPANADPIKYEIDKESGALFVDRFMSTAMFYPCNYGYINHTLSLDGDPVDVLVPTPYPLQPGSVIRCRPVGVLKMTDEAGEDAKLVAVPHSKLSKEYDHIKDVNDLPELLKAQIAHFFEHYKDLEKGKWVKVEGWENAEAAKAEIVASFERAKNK
SMILES,target or system,assay,system,conditions,scale,endpoint,result
Nc1ncc(-c2cc(-c3cnn(CC(F)(F)F)c3)ncc2F)nc1C(=O)NC1CNCC(F)C1 (stereo not drawn),MST3,KINOMEscan,,1 µM,reference: DMSO control,remaining binding,74%
COc1cc(O)ccc1CCC(c1ccc(O)cc1)c1cc2c(c(C)c1O)OC(c1ccc(O)cc1)CC2 (mixture of isomers),,,human blood,"0.3 µM, together with: A23187",,12-HETE level,6510 ± 2500 pg/mL
CC(=NOCc1ccc2nc(-c3ccccc3)c(Nc3ccc(C(=O)O)cc3)n2c1)c1ccc(O)cc1 (mixture of isomers),TDP1,"enzyme activity, inhibitor",,"100 µM, unpurified compound",,inhibition,29.1%
C=CC(=O)Nc1cccc(Cn2ncc3cnc(Nc4cnn(CCOC)c4)nc32)c1,human TIE2,KINOMEscan,,100 nM,reference: control,binding,92%
Cc1ncsc1-c1ccc(C(C)NC(=O)C2CC(O)CN2C(=O)C(NC(=O)CCCCCCCCCCN2CCCC(Nc3ncc(Cl)c(Nc4ccccc4S(=O)(=O)C(C)C)n3)C2)C(C)(C)C)cc1 (stereo not drawn),22Rv1,"RNA-seq, refers to: UBA6-AS1",,concentration not given,reference: DMSO,log2 fold change,-1.46
C=CC(=O)N1[C@@H](c2ccc3c(c2)OCO3)c2[nH]c3ccccc3c2C[C@H]1C(=O)N1CCN(C)CC1,human cyclin E1 N112C-3xFLAG:CDK2,"co-IP with TMT proteomics, refers to: cyclin E1",,concentration not given,reference: wild type DMSO,relative enrichment,100%
Clc1ccc(C2=Nn3c(nnc3C3CCCCC3)SC2)cc1,"ppa (Escherichia coli, UniProt P0A7A9)","enzyme activity, inhibitor",,,,IC50,> 100000 nM
CNS(=O)(=O)Nc1nccc(Cc2c(C)c3ccc(Oc4ncccc4F)cc3oc2=O)c1F,C-33-A,cell viability,,7 days,,IC50,250 nM
Cn1ncc2cc(-c3cncc(Cl)c3N3CCC4(CCNC4=O)CC3)ccc21,LS174T,"gene expression, microarray, refers to: ZFP14 mRNA",,"concentration not given, 24 h",reference: untreated cells,log2 fold change,3.21
O=C(O)c1ccc(Nc2c(-c3ccc(CON=Cc4cccc(N5CCOCC5)c4)cc3)nc3cc(-c4ccccc4)ccn23)cc1,TDP1,"enzyme activity, inhibitor",,"100 µM, unpurified compound",,inhibition,47.9%
CN1CCCNC(=O)c2cccc(c2)C(=O)NCCCN(C)CCCNc2cccc3c2C(=O)c2cccc(c2C3=O)NCCC1,SAS,"RNA-Seq, refers to: CEBPB mRNA",,"1 µM, 6 h",reference: untreated cells,log2 fold change,0.543
COC1CN([C@H]2CC[C@H]([C@@]3(C)Oc4c(Cl)cc(C(=O)NCc5c(SC)cc(C)[nH]c5=O)c(C)c4O3)CC2)C1,,"RNA-seq, refers to: IL18R1","human, whole blood","dose not given, 24 h",reference: pretreatment baseline,log2 fold change,1.43

# Repeated from above:
SMILES,target or system,assay,system,conditions,scale,endpoint,result
Clc1ccc(C2=Nn3c(nnc3C3CCCCC3)SC2)cc1,"ppa (Escherichia coli, UniProt P0A7A9)","enzyme activity, inhibitor",,,,IC50,> 100000 nM
CNS(=O)(=O)Nc1nccc(Cc2c(C)c3ccc(Oc4ncccc4F)cc3oc2=O)c1F,C-33-A,cell viability,,7 days,,IC50,250 nM
